Experimental data collected from several papers.
Each line is one published result; not all experiments were run side by side. Values joined by “and” are separate records of one study, mostly repeats; a detail may differ. Numbers after ± are the reported error.
CPL: CPL (Toxoplasma gondii, UniProt Q6DMN0)
BPHL: Serine hydrolase BPHL (BPHL, Homo sapiens, UniProt Q86WA6)
Aminopeptidase N: Aminopeptidase N (Neisseria meningitidis, UniProt Q9JYV4)
rocR: Cyclic di-GMP phosphodiesterase RocR (rocR, Pseudomonas aeruginosa, UniProt Q9HX69)

| Compound | tested on | test | test system | conditions | how to read | measurement | value |
| --- | --- | --- | --- | --- | --- | --- | --- |
| CC(C)C[C@H](NC(=O)[C@H](CCCCN)NC(=O)[C@H](CC(C)C)NC(=O)[C@]1(C)CCCC=CCCC[C@](C)(N)C(=O)N[C@@H](C)C(=O)N[C@@H](Cc2ccc(O)cc2)C(=O)N[C@@H](Cc2ccccc2)C(=O)N1)C(=O)N[C@@H](C)C(=O)NCC(=O)N[C@@H](CCCNC(=N)N)C(=O)N[C@@H](Cc1c[nH]c2ccccc12)C(N)=O | PC4 and SFRS1-interacting protein, with HIV integrase (Homo sapiens, UniProt O75475) | – | – | concentration not given, HIV-1 context | – | activity | inactive |
| Cc1cc(O)cc(C)c1CC(N)C(=O)NC1CCNc2c(C(=O)NCc3ccccc3)cc(Cc3ccccc3)cc21 (stereo not shown) | Oprd1 (Rattus norvegicus, UniProt P33533) | GTPγS binding, antagonist | – | together with: SNC80 | – | Ke | 16.7 nM |
| CN[C@](C)(C[18F])C(=O)O | DU-145 tumour model | – | host not given, lung | 15 min, tumour-bearing | – | tracer uptake | 3.6 %ID/g |
| CC(C)(C)CCN(Cc1ccc(F)cc1)c1nc(C#N)nc(N2CCOCC2)n1 | CPL | enzyme activity, inhibitor | – | – | reference: human over Toxoplasma IC50 | selectivity ratio | 2.4 and 2 |
| NCCCCCCCCN1[C@H]2[C@H](O)[C@@H](O)[C@H](O[C@@H]3OC[C@@H](O)[C@H](O)[C@H]3O)C[C@H]21 (stereo partly shown) | Probable endo-1,4-beta-xylanase C (xlnC, Aspergillus niger, UniProt C5J411) | activity-based probe binding, competitive inhibitor, in-gel fluorescence | Aspergillus niger, xylan-induced secretome | concentration not given, band near 30 kDa, together with: Cy5 xylobiose activity-based probe | – | probe labelling | inhibited |
| COc1cc2ccnc(Cc3ccc(O[11CH3])c(OC)c3)c2cc1OC | Pde10a (Rattus norvegicus, UniProt Q9QYJ6) | autoradiography | rat brain sections | 9 nM, 30 min, 25 °C | – | non-striatal binding | no binding |
| CC(COC(=O)c1ccccc1)OC(=O)C(N)Cc1ccccc1 (mixture of isomers) | BPHL | hydrolysis, substrate | – | – | – | Vmax | 0.0025 mM/min |
| CCN(Cc1ccccc1)C(=O)CCc1nc(CN2CCN(C(=O)Cc3ccc(OC)c(OC)c3)CC2)no1 | Sodium channel protein type 11 subunit alpha (Scn11a, Rattus norvegicus, UniProt O88457) | sodium current, whole-cell patch clamp | rat DRG neurons | 10 µM | reference: control, towards hyperpolarisation | inactivation curve shift | 12.1 mV |
| N=C(N)NCCCC[C@H](N)C(=O)Nc1ccc2c(CC(N)=O)cc(=O)oc2c1 | Aminopeptidase N | substrate | – | 3 µM, pH 7.5 | reference: best substrate | relative hydrolysis rate | 100% |
| CC[C@H](C)[C@@H]1NC(=O)[C@H](CC(N)=O)NC(=O)[C@@H]2CCCN2C(=O)[C@@H](NC(=O)[C@H](CC(N)=O)NC(=O)[C@@H](N)CCC(N)=O)COC(=O)[C@H](CCSC)NC(=O)[C@H](Cc2c[nH]c3ccccc23)NC(=O)[C@H](CCC(N)=O)NC(=O)CNC(=O)[C@H](Cc2ccccc2)N(C)C1=O | Fsr quorum sensing protein (Enterococcus faecalis, UniProt A0ACD6TCR9) | quorum sensing reporter, activator | – | – | reference: compound over tail-removed analog | EC50 ratio | 3 fold |
| Nc1nc2c([C@@H]3O[C@@H]4COP(=O)(O)O[C@H]5[C@@H](O)[C@H](c6snc7c(=O)[nH]c(N)nc67)O[C@@H]5COP(=O)(O)O[C@H]4[C@H]3O)snc2c(=O)[nH]1 | rocR | substrate, HPLC | – | 10 µM, together with: 100 nM enzyme | – | association rate constant k1 | 43000 ± 20000 M⁻¹ s⁻¹ |
| Cn1cc(-c2cccc(CN3CCC4(CC3)COc3c4ccc4c3CN(C3CCC(=O)NC3=O)C4=O)c2)cn1 (stereo not shown) | CRBN/Zinc finger protein Helios (Homo sapiens, UniProt Q96SW2+Q9UKS7) | Helios degradation, degrader, HiBiT | HEK293 | 6 h | – | Dmax | 89% |
| CC[C@H](C)[C@H](NC(=O)[C@H](CC(N)=O)NC(=O)[C@H](CCC(=O)O)NC(=O)[C@H](CCC(=O)O)NC(=O)[C@H](CCC(=O)O)NC(=O)[C@H](CC(N)=O)NC(=O)[C@H](CCCNC(=N)N)NC(=O)[C@@H]1CCCN1C(=O)[C@H](CCCCN)NC(=O)[C@@H](NC(=O)[C@@H](NC(=O)[C@H](C)NC(=O)[C@H](CC(=O)O)NC(=O)[C@H](CCSC)NC(=O)[C@@H]1CCCN1C(=O)[C@H](CCC(=O)O)NC(=O)[C@H](C)NC(=O)[C@H](Cc1ccc(OP(=O)(O)O)cc1)NC(=O)[C@H](CC(=O)O)NC(=O)[C@H](CO)NC(=O)[C@@H]1CCCN1C(=O)[C@H](CC(=O)O)NC(C)=O)C(C)C)C(C)C)C(=O)N[C@@H](Cc1ccc(OP(=O)(O)O)cc1)C(=O)N[C@@H](CO)C(=O)N[C@H](C(=O)N1CCC[C@H]1C(=O)N[C@@H](Cc1c[nH]cn1)C(=O)N[C@@H](CC(=O)O)C(=O)N[C@@H](CO)C(N)=O)C(C)C | Ras GTPase-activating protein 1, SH2-SH3-SH2 region (RASA1, Homo sapiens, UniProt P20936, C236S/C261S/C372S/C402S) | isothermal titration calorimetry | – | concentration not given, pH 8.0, together with: doubly phosphorylated p190RhoGAP peptide | – | binding entropy | -280 ± 80 J/(mol·K) |
| C=CC1CN2CCC1CC2C(O)c1c(-c2ccc(N=Nc3ccccc3)cc2)cnc2ccc(OC)cc12 (stereo not shown) | SCN5A (Homo sapiens, UniProt Q14524) | blocker, whole-cell patch clamp | – | 10 µM, cis isomer | – | sodium current | decreased |
| CCC(CC)OC1C=C(C(=O)OC(C)OC(=O)C(N)C(C)C)CC(NC(=N)N)C1NC(C)=O (mixture of isomers) | BPHL | hydrolysis, substrate | – | pH 7.4 | – | Vmax | 19.4 nmol/min/µg |
| CC(C)P(=S)(NP(=S)(C(C)C)C(C)C)C(C)C | Alpha-amylase (Bacillus subtilis, UniProt P00691) | binding, Van't Hoff analysis | – | pH 6.8, 298–310 K | – | ΔH | 5.76 kcal/mol |
| CC[C@H](C)[C@H](NC(=O)[C@@H]1CCCN1C(=O)[C@H](Cc1c[nH]cn1)NC(=O)[C@@H](NC(=O)[C@H](Cc1ccc(O)cc1)NC(=O)[C@@H](NC(=O)[C@H](CCCNC(=N)N)NC(=O)CNC)C(C)C)[C@@H](C)CC)C(=O)O | AGTR1 (Homo sapiens, UniProt P30556) | IP1 accumulation, agonist | Expi293F cells | 1 h, 37 °C | – | Emax | 52 ± 3% |
| CC(=O)NC(Cc1ccc(Br)c(Cl)c1)C(=O)N[C@@H](C)C(=O)N1CCC[C@H]1C(=O)N1CCC[C@H]1C(=O)N[C@@H](CCC(=O)O)C(=O)N[C@@H](Cc1c[nH]cn1)C(=O)N[C@@H](CO)C(=O)N[C@H](C(=O)N[C@@H](C)C(N)=O)[C@@H](C)OP(=O)(O)O (stereo partly shown) | EPHB4 (Homo sapiens, UniProt P54760) | cell-free assay, inhibitor | – | 10 µM | – | inhibition | 0.5% |
| CC(C)C[C@@H]1NC(=O)[C@H](CCCNC(=N)N)NC(=O)[C@H](CCCCN)NC(=O)[C@H](CC(=O)O)NC(=O)[C@H](C)NC(=O)[C@@H](CO)NC1=O | Disintegrin and metalloproteinase domain-containing protein 8 (Homo sapiens, UniProt P78325) | ADAM8 dimerisation | PANC-1 | 500 nM | – | FRET/FLIM efficiency | no effect |
| CCOC(=O)/C(C#N)=C/c1cccc(C(N)=O)c1 | Genome polyprotein, 3C protease (Human enterovirus D68, UniProt Q68T42, C1641Y/I1565V/I1594T/R1603K/Y1579H) | ITC | enterovirus D68 | 25 °C, together with: DTT 10 mM | – | -TΔS | 5 kcal/mol |
| O=C(O)CCCC(=O)O | Cholinesterase (BCHE, Homo sapiens, UniProt P06276) | enzyme activity, inhibitor, Ellman | – | 250 µg/mL | – | inhibition | 60.8% |
| Nc1nc2c([C@@H]3O[C@@H]4COP(=O)(O)O[C@H]5[C@@H](O)[C@H](n6cnc7c(=O)[nH]c(N)nc76)O[C@@H]5COP(=O)(O)O[C@H]4[C@H]3O)snc2c(=O)[nH]1 | rocR | substrate | – | 10 µM, second binding orientation, together with: 100 nM enzyme | – | association rate constant k3 | 1.8e+06 ± 100000 M⁻¹ s⁻¹ |
| CC[C@H](C)[C@H](NC(=O)[C@H](Cc1c[nH]cn1)NC(=O)[C@H](CCCCNC(=O)[C@@H](NC(=O)[C@H](CCCCN)NC(=O)CSC[C@H](NC(=O)[C@H](Cc1ccccc1)NC(=O)[C@H](CCCCNC(=O)[C@H](CC(C)C)NC(=O)[C@@H]1CCCN1C(=O)[C@H](CCCCN)NC(=O)c1ccc(O[C@@H]2O[C@H](CO)[C@H](O)[C@H](O)[C@H]2O)cc1)NC(=O)[C@H](CC(C)C)NC(=O)[C@@H]1CCCN1C(=O)[C@H](CCCCN)NC(=O)C[C@@H]1O[C@@H](C)[C@@H](O)[C@@H](O)[C@@H]1O)C(N)=O)[C@@H](C)CC)NC(=O)[C@@H](NC(=O)[C@H](CCCCN)NC(=O)CSC[C@H](NC(=O)[C@H](Cc1ccccc1)NC(=O)[C@H](CCCCNC(=O)[C@H](CC(C)C)NC(=O)[C@@H]1CCCN1C(=O)[C@H](CCCCN)NC(=O)c1ccc(O[C@@H]2O[C@H](CO)[C@H](O)[C@H](O)[C@H]2O)cc1)NC(=O)[C@H](CC(C)C)NC(=O)[C@@H]1CCCN1C(=O)[C@H](CCCCN)NC(=O)C[C@@H]1O[C@@H](C)[C@@H](O)[C@@H](O)[C@@H]1O)C(N)=O)[C@@H](C)CC)C(N)=O | lecB (Pseudomonas aeruginosa, UniProt Q9HYN5) | binding, isothermal titration calorimetry | – | divided by fucoside copies | reference: monovalent fucoside KD over ligand KD | relative potency per fucoside | 1.4 |
| CCCCN(Cc1ccc(F)cc1)c1nc(C#N)nc(N2CCOCC2)n1 | CPL | enzyme activity, inhibitor | – | – | reference: human over Toxoplasma IC50 | selectivity ratio | 0.22 |
| C#CC[C@H](N)C(=O)Nc1ccc2c(CC(N)=O)cc(=O)oc2c1 | Aminopeptidase N | enzyme activity, substrate | – | pH 7.5, 37 °C | – | Km | 121 ± 2.3 µM |
